Measured values collected from several papers.
“And” joins repeats or separate records; there may be more than shown. Numbers after ± are the reported error.

SMILES	target or system	test	test system	setting	scale	endpoint	result
CC(C)[C@H](NC(=O)[C@H](CCCNC(=N)N)NC(=O)[C@@H]1CCCN1C(=O)[C@@H](NC(=O)[C@H](C)NC(=O)[C@H](Cc1ccc(O)cc1)NC(=O)[C@H](CCC(N)=O)NC(=O)[C@H](CCCCN)NC(=O)[C@H](CCCNC(=N)N)NC(=O)[C@@H]1CCCN1C(=O)[C@H](CCC(=O)O)NC(=O)[C@@H](NC(=O)[C@H](C)N)[C@@H](C)O)[C@@H](C)O)C(=O)N[C@@H](Cc1ccccc1)C(=O)N[C@@H](Cc1c[nH]c2ccccc12)C(=O)N[C@H](C(=O)N[C@@H](CC(=O)O)C(=O)N[C@@H](C)C(=O)N1CCC[C@H]1C(=O)NCC(=O)NCCOCCOCCOCCOCCOCCOCCOCCOCCOCCOCCOCCOCCC(=O)N[C@@H](CS)C(N)=O)[C@@H](C)O	H1650 lung adenocarcinoma	cell binding, phage binding, measured: output/input phage		10 min, 37 °C	relative to: control phage	selectivity ratio	0.34 ± 0.071
C#CCNC(=O)c1ccc(S(=O)(=O)N[C@@H](CCCCNC(C)=S)C(=O)N[C@@H](CCCNC(=N)N)C(=O)N[C@@H](CC2CCCCC2)C(=O)N[C@H](CCCCN)C(=O)N[C@@H](CC2CCCCC2)C(N)=O)cc1	Jurkat	cell growth or viability, MTT		72 h		EC50	> 60000 nM
CCOC(=O)C1(Cc2ccccc2)Oc2cc(F)ccc2N(Cc2ccccc2)C1=O (centres unmarked)	HEK293T	cytotoxicity, CCK-8		0.78 µM, 72 h		inhibition	0%
N[C@H](C(=O)N1CCCC1)C1CCN(c2nccc3c(-c4ncc(Cl)cc4Cl)cccc23)CC1	human neutrophils	protein citrullination, inhibitor, flow cytometry, measured: citrullinated proteins		1 nM, added: ionomycin		inhibition	9.22% and 6.89% and 2.99% and 22.3%
O=c1n(CCNCCOS(=O)(=O)c2ccccc2)c(=O)n(S(=O)(=O)c2ccccc2)c(=O)n1S(=O)(=O)c1ccccc1	A549	cell growth or viability, MTT		100 µg/mL, 72 h		viability	31.2%
O=C(C[Se]C(=O)c1cccs1)Nc1cccc(C(F)(F)F)c1	NCI60 ovarian subpanel	cytotoxicity, inhibitor		five-dose		CC50	7.29 µM
CC(ON1C(C)(C)CCCC1(C)C)c1ccc(NC(=O)[C@@H](NC(=O)[C@@H]2CCCN2C(=O)[C@H](C)NC(=O)[C@H](C)NC(=O)CCC(=O)O)C(C)C)cc1 (some centres unmarked)	U87	PrestoBlue		without HNE		LC50	150 µM
Cc1cccc(-c2cccc(C)n2)n1.Cc1cccc(-c2cccc(C)n2)n1.F[P-](F)(F)(F)(F)F.F[P-](F)(F)(F)(F)F.[Ru+2].c1ccc2c(-c3nc4c5cccnc5c5ncccc5c4[nH]3)cccc2c1	SK-MEL-28			1% O2, added: green light 523 nm, 100 J/cm2	relative to: dark over light EC50	phototoxicity index	2
O=C(C[Se]C(=O)c1ccco1)Nc1cccc(C(F)(F)F)c1	NCI60 ovarian subpanel	total growth inhibition, inhibitor		five-dose		mean TGI	5.21 µM
O=C(CNC(=O)[C@H](Cc1ccccc1)NC(=O)[C@H](Cc1ccccc1)NC(=O)Cc1ccc2ccccc2c1)N[C@@H](Cc1ccc(OP(=O)(O)O)cc1)C(=O)O	HS5	cell growth or viability, MTT				GI50	472 µM
NC(=O)N/N=C/c1ccc(OCc2ccccc2)cc1	IMR-32			300 µg/mL, 24 h	higher = more activity	catalase activity (OD450)	0.268 a.u.
C#CCN1C(=O)C(CC#C)(C(=O)OCC)Oc2ccccc21 (centres unmarked)	HEK293T	cytotoxicity, CCK-8		50 µM, 72 h		inhibition	0.72 ± 0.33%
CC(=O)NCSC[C@H](NC(=O)[C@@H]1CCCN1C(=O)[C@H](C)NC(=O)[C@@H](NC(=O)CNC(=O)[C@@H](NC(=O)[C@H](Cc1c[nH]c2ccccc12)NC(=O)[C@H](C)NC(=O)CNC(=O)[C@H](CO)NC(=O)[C@H](C)NC(=O)[C@@H]1CCCN1C(=O)[C@H](Cc1c[nH]c2ccccc12)NC(=O)[C@H](C)NC(=O)[C@H](C)NC(=O)[C@@H](N)Cc1ccc(O)cc1)[C@@H](C)O)[C@@H](C)O)C(=O)N[C@@H](CO)C(=O)N[C@@H](C)C(=O)NCC(=O)N[C@H](C(=O)NCCOCCOCCOCCOCCOCCOCCOCCOCCOCCOCCOCCOCCC(=O)N[C@@H](CS)C(N)=O)[C@@H](C)O	H661 lung large cell carcinoma	cell binding, phage binding, measured: output/input phage		10 min, 37 °C	relative to: control phage	selectivity ratio	2.8 ± 2
CC(C)(C)C(=O)OCOP(=O)(OCOC(=O)C(C)(C)C)C1CCCN(O)C1=O (centres unmarked)	SF-268					log GI50	-6.36 log M
CSCC[C@H](NC(=O)[C@@H](NC(=O)[C@H](CCC(N)=O)NC(=O)[C@H](CO)NC(=O)[C@@H](N)C(C)C)[C@@H](C)O)C(=O)N[C@@H](CCCNC(=N)N)C(=O)N[C@@H](CCC(N)=O)C(=O)N[C@H](C(=O)N[C@@H](C)C(=O)N[C@H](C(=O)N1CCC[C@H]1C(=O)N[C@@H](CC(C)C)C(=O)N[C@@H](CC(C)C)C(=O)N[C@@H](Cc1c[nH]c2ccccc12)C(=O)N[C@@H](Cc1ccccc1)C(=O)N[C@@H](Cc1c[nH]c2ccccc12)C(=O)N[C@H](C(=O)NCC(=O)N[C@@H](CO)C(=O)N[C@@H](CC(C)C)C(=O)NCCOCCOCCOCCOCCOCCOCCOCCOCCOCCOCCOCCOCCC(=O)N[C@@H](CS)C(N)=O)[C@@H](C)O)C(C)C)[C@@H](C)O	H1155 lung large cell carcinoma	cell binding, phage binding, measured: output/input phage		10 min, 37 °C	relative to: control phage	selectivity ratio	3.3 ± 1.7
COc1ccc2c(c1)c(CC(=O)[Se]CC(=O)Nc1cccc(C(F)(F)F)c1)c(C)n2C(=O)c1ccc(Cl)cc1	NCI60 NSCLC subpanel	NCI60 five-dose screen				CC50	7.09 µM
C=CCN1C(=O)C(CC=C)(C(=O)OCC)Oc2cc(F)ccc21 (centres unmarked)	HEK293T	cytotoxicity, CCK-8		25 µM, 72 h		inhibition	0.41 ± 0.19%
Cc1cc(Oc2nc(N3CC[C@@H](c4ccncc4)C3)ncc2F)[nH]n1	lung cancer cell lines	cell proliferation		average over lines		IC50	53.7 µM
O=C(C[Se]C(=O)c1ccc2ccccc2n1)Nc1cccc(C(F)(F)F)c1	NCI60 prostate subpanel (PC-3, DU-145)	cytotoxicity, inhibitor		five-dose		CC50	6.89 µM
[Cl-].[Cl-].[Ru+2].c1ccc(-c2ccccn2)nc1.c1ccc(-c2ccccn2)nc1.c1ccc2cc3nc4c5cccnc5c5ncccc5c4nc3cc2c1	SK-MEL-28	cell viability		normoxia, added: green light 523 nm, 100 J/cm2		EC50	179 ± 51 nM
COc1ccccc1-c1ccncc1C(=O)Nc1nnc(OCc2ccc(Cl)cc2)s1	RPE-1 BRCA1 WT parental			4 µM, run 2	relative to: untreated	colony survival	71.1%
O=C(C[Se]C(=O)c1cc2ccccc2o1)Nc1cccc(C(F)(F)F)c1	NCI60 renal subpanel	cytotoxicity, inhibitor		five-dose		CC50	6.43 µM
CC(C)C[C@H](NC(=O)[C@H](CC(=O)O)NC(=O)CNC(=O)[C@@H](N)CCCNC(=N)N)C(=O)N[C@@H](C)C(=O)N[C@H](C(=O)N[C@@H](CC(C)C)C(=O)N[C@@H](CCCNC(=N)N)C(=O)N[C@@H](CCC(N)=O)C(=O)N[C@@H](CC(C)C)C(=O)N[C@@H](C)C(=O)N[C@@H](CCC(N)=O)C(=O)N[C@@H](CCC(=O)O)C(=O)N[C@@H](CC(=O)O)C(=O)NCC(=O)N[C@H](C(=O)N[C@H](C(=O)NCC(=O)N[C@H](C(=O)N[C@@H](CCCNC(=N)N)C(=O)NCCOCCOCCOCCOCCOCCOCCOCCOCCOCCOCCOCCOCCC(=O)N[C@@H](CS)C(N)=O)C(C)C)C(C)C)C(C)C)[C@@H](C)O	H1650 lung adenocarcinoma	cell binding, phage binding, measured: output/input phage		10 min, 37 °C	relative to: control phage	selectivity ratio	15 ± 5.5
CC(C)CC(O)(CC(C)C)c1cn(C(=O)N2CCCC2)nn1	mouse T-cells	SILAC proteomics, measured: LARP1		1 nM, 6 h, unit not given	relative to: DMSO	protein level	1.08
COc1ccccc1/C=C/[N+](=O)[O-]	human PBMC	Bliss model		concentration not given	direction not given	MID synergy score	2.68
O=C(C[Se]C(=O)c1ccccc1)Nc1cccc(C(F)(F)F)c1	NCI60 renal subpanel	cell growth, inhibitor		five-dose		GI50	2.22 µM
O=C1NC2(CC2)COc2ncc(F)cc2[C@H]2COCCN2c2ccn3ncc1c3n2			Sprague-Dawley rat, male, spleen	oral, 5 mg/kg/day, 4 weeks dosing, end of recovery		organ-to-body weight ratio	0.226 ± 0.021%
O=C(C[Se]C(=O)c1cccnc1Nc1cccc(C(F)(F)F)c1)Nc1cccc(C(F)(F)F)c1	NCI60 renal subpanel	cytotoxicity, inhibitor		five-dose		CC50	6.13 µM
O=C(O)c1ccc(-c2nc(-c3ccccc3Cl)c3sccn23)cc1	human CD34+ hematopoietic stem cells	megakaryocyte differentiation, flow cytometry, measured: CD61		10 µM, day 3, added: TPO	relative to: control	fold change	1.36 fold and 1.53 fold and 1.27 fold and 1.07 fold and 1.18 fold and 1.16 fold and 1.1 fold and 1.12 fold

A few entries again:
SMILES	target or system	test	test system	setting	scale	endpoint	result
NC(=O)N/N=C/c1ccc(OCc2ccccc2)cc1	IMR-32			300 µg/mL, 24 h	higher = more activity	catalase activity (OD450)	0.268 a.u.
O=C(C[Se]C(=O)c1cc2ccccc2o1)Nc1cccc(C(F)(F)F)c1	NCI60 renal subpanel	cytotoxicity, inhibitor		five-dose		CC50	6.43 µM
[Cl-].[Cl-].[Ru+2].c1ccc(-c2ccccn2)nc1.c1ccc(-c2ccccn2)nc1.c1ccc2cc3nc4c5cccnc5c5ncccc5c4nc3cc2c1	SK-MEL-28	cell viability		normoxia, added: green light 523 nm, 100 J/cm2		EC50	179 ± 51 nM
N[C@H](C(=O)N1CCCC1)C1CCN(c2nccc3c(-c4ncc(Cl)cc4Cl)cccc23)CC1	human neutrophils	protein citrullination, inhibitor, flow cytometry, measured: citrullinated proteins		1 nM, added: ionomycin		inhibition	9.22% and 6.89% and 2.99% and 22.3%
